Measured values from different studies.
± gives the spread as reported.

`C=Cc1c(C)c2cc3nc(c(CC(=O)[O-])c4[n-]c(cc5nc(cc1[n-]2)C(C)=C5CC)c(C)c4C(=O)[O-])C(CCC(=O)[O-])C3C.[Cu+2].[Na+].[Na+].[Na+]` (stereo not shown) — result for “blood urea nitrogen”: 23.7 ± 2.42 mg/dL (Wistar rat, male; oral, 250 mg/kg daily, 28 days).
`CC[C@H](C)[C@H](NC(=O)[C@H](CCCCN)NC(=O)CNC(=O)[C@H](CC(C)C)NC(=O)[C@H](Cc1ccccc1)NC(=O)[C@H](CCCCN)NC(=O)[C@H](CO)NC(=O)[C@H](Cc1ccccc1)NC(=O)[C@H](Cc1c[nH]c2ccccc12)NC(=O)[C@H](CCC(N)=O)NC(=O)[C@@H](NC(=O)[C@H](Cc1ccccc1)NC(=O)CCCCCNC(=O)CN1CCN(CC(=O)O)CCN(CC(=O)O)CCN(CC(=O)O)CC1)C(C)C)C(=O)N[C@@H](CCC(=O)O)C(=O)N1CCC[C@H]1C(=O)N[C@@H](CC(=O)O)C(=O)N[C@H](C(=O)N[C@@H](CO)C(=O)N[C@@H](CCC(N)=O)C(=O)N[C@H](C(=O)N[C@@H](CCC(N)=O)C(=O)N[C@@H](CC(=O)O)C(=O)N1CCC[C@H]1C(=O)N[C@@H](CC(N)=O)C(=O)N[C@@H](CC(=O)O)C(=O)N[C@@H](CCC(N)=O)C(=O)N[C@@H](Cc1ccc(O)cc1)C(=O)N[C@@H](CCC(=O)O)C(=O)N1CCC[C@H]1C(=O)N[C@@H](Cc1ccccc1)C(=O)O)C(C)C)C(C)C` [copper-64 labelled] gave a tissue uptake of 0.56 ± 0.02 %ID/g (BALB/c mice, male, CT26 tumour-bearing, blood; 2 h, anti-PD1 plus anti-CTLA4 treated).
`CCCCCCCCCCCCCCCC(=O)N[C@@H](CCC(=O)NCCOCCOCCC(=O)NCCOCCOCCC(=O)NCCCC[C@H](NC(=O)[C@H](CC(=O)O)NC(=O)[C@H](CC(C)C)NC(=O)[C@H](Cc1ccc(O)cc1)NC(=O)[C@H](CCCCN)NC(=O)[C@H](CO)NC(=O)[C@H](Cc1ccc(O)cc1)NC(=O)[C@H](CC(=O)O)NC(=O)[C@H](CO)NC(=O)[C@@H](NC(=O)[C@H](Cc1ccccc1)NC(=O)[C@@H](NC(=O)CNC(=O)[C@H](CCC(N)=O)NC(=O)[C@@H](CO)NC(=O)[C@@H](N)Cc1c[nH]cn1)[C@@H](C)O)[C@@H](C)O)C(=O)N[C@@H](CCCNC(=N)N)C(=O)N[C@@H](CCCNC(=N)N)C(=O)N[C@@H](C)C(=O)N[C@@H](CCC(N)=O)C(=O)N[C@@H](CC(=O)O)C(=O)N[C@@H](Cc1ccccc1)C(=O)N[C@H](C(=O)N[C@@H](CCC(N)=O)C(=O)N[C@@H](Cc1c[nH]c2ccccc12)C(=O)N[C@@H](CC(C)C)C(=O)N[C@@H](CC(C)C)C(=O)N[C@@H](CC(N)=O)C(=O)N[C@H](C(=O)NCC(=O)NCC(=O)N1CCC[C@H]1C(=O)N[C@@H](CO)C(=O)N[C@@H](CO)C(=O)NCC(=O)N[C@@H](C)C(=O)N1CCC[C@H]1C(=O)N1CCC[C@H]1C(=O)N1CCC[C@H]1C(=O)N[C@@H](CO)C(N)=O)[C@@H](C)O)C(C)C)C(=O)O` gave a creatinine of 46.6 ± 8.4 µmol/L (rhesus monkey, male; subcutaneous, 60 µg/kg once daily, 28 days).
`C#Cc1c(F)ccc2cc(O)cc(-c3ncc4c(N5CC6CCC(C5)N6C(=O)OC(C)OC(=O)C(C)C)nc(OC[C@@]56CCCN5C[C@H](F)C6)nc4c3F)c12` (stereo partly shown) gave a compound remaining of 102% (chemical stability; simulated intestinal fluid; 1 µM, 30 min).
With `CSCC[C@H](NC(=O)CNC(=O)[C@H](CCCCN)NC(=O)[C@H](CC(C)C)NC(=O)[C@@H]1CCCN1C(=O)[C@H](CO)NC(=O)[C@H](Cc1c[nH]cn1)NC(=O)[C@H](Cc1c[nH]c2ccccc12)NC(=O)[C@H](CCCNC(=N)N)NC(=O)[C@H](CC(C)C)NC(=O)[C@H](CCCNC(=N)N)NC(=O)[C@H](Cc1c[nH]c2ccccc12)NC(=O)[C@H](CS)NC(=O)CCCCCNC(=O)CN1CCN(CC(=O)O)CCN(CC(=O)O)CCN(CC(=O)O)CC1)C(=O)O` [copper-64 labelled] the tissue uptake was 0.15 %ID/g (ex vivo biodistribution; BALB/c nude mice, brain; intravenous, dose not given, 1 h, Huh-7 tumour-bearing).
Under “organ-to-brain weight ratio”, `O=C1NC2(CC2)COc2ncc(F)cc2[C@H]2COCCN2c2ccn3ncc1c3n2` is recorded as 112 ± 9.44% (Sprague-Dawley rat, female, kidneys; oral, 20 mg/kg/day, 4 weeks, end of treatment).
The AUC(0-inf) decrease of `O=C(O)/C=C\c1ccc2occc2c1O[C@@H]1O[C@H](CO)[C@@H](O)[C@H](O)[C@H]1O` is reported as 455 ± 390 µg·h/mL (rat, plasma; oral, dose not given, dosed as combined Eu and Pc extracts; reference: single extracts).
For `CC(C)(C)C(=O)OCOP(=O)(OCOC(=O)C(C)(C)C)C1CCCN(O)C1=O` (stereo not shown), the log GI50 was -5.7 log M (OVCAR-5).
The RDW-SD of `C=CC(=O)Nc1cccc(Cn2ncc3cnc(Nc4cnn(CCOC)c4)nc32)c1` is reported as 33.5 ± 1.46% (Sprague-Dawley rat, male; oral, 180 mg/kg, day 28, 28-day subacute toxicity study).
The tissue concentration of `CC(=O)NCCCC[C@@H]1NC(=O)[C@H](Cc2c[nH]c3c(C)cccc23)NC(=O)[C@H]([C@@H](C)O)NC(=O)[C@H](CC(N)=O)NC(=O)[C@@H](NC(C)=O)C(C)(C)SSC(C)(C)[C@@H](C(=O)N[C@@H](Cc2ccc(OCCN)cc2)C(=O)N[C@@H](Cc2ccc3ccccc3c2)C(=O)NC2(C(=O)N[C@@H](CCC(=O)O)C(=O)N[C@@H](CC(N)=O)C(=O)N[C@@H](Cc3cccnc3)C(=O)N(C)CC(N)=O)CCOCC2)NC1=O` is reported as 74% (cynomolgus monkey, ileum; intravenous, 1 mg/kg; reference: plasma concentration).
For `CC(C)C[C@@H](NC(=O)[C@@H](CCCNC(=N)N)NC(=O)[C@@H](Cc1c[nH]cn1)NC(=O)[C@@H](Cc1c[nH]c2ccccc12)NC(=O)[C@@H](Cc1c[nH]cn1)NC(=O)[C@@H](Cc1ccccc1)NC(=O)[C@H](NC(=O)[C@@H](Cc1ccc(O)cc1)NC(=O)CNC(=O)CNC(=O)CCOCCOCCOCCNC(=O)CN1CCN(CC(=O)O)CCN(CC(=O)O)CC1)[C@H](C)O)C(=O)N[C@H](CC(N)=O)C(=O)N1CCC[C@@H]1C(=O)O` [gallium-68 labelled], the tissue ratio was 5.31 ± 0.87 (C57BL/6 mice, male; intravenous, 1.85 MBq, 60 min; reference: tumour over lung).
The monocytes of `CC(C)[C@@H]1NC(=O)CNC(=O)[C@H](CC(N)=O)NC(=O)[C@H](CCCNC(=N)N)NC(=O)[C@H](Cc2ccc(O)cc2)NC(=O)[C@H](C(C)C)NC(=O)[C@@H](NC(=O)[C@@H](NC(=O)[C@H](CC(N)=O)NC(=O)[C@H](Cc2c[nH]c3ccccc23)NC(=O)[C@H](C)NC(=O)[C@H](Cc2ccccc2)NC(=O)CNC(=O)[C@H](CCCCN)NC(=O)[C@H](Cc2ccccc2)NC(=O)[C@H](Cc2ccccc2)NC(=O)[C@H](CCCCN)NC(=O)OCC2c3ccccc3-c3ccccc32)C(C)C)CSSC[C@@H](C(=O)N[C@@H](Cc2c[nH]cn2)C(=O)N[C@@H](CCCNC(=N)N)C(=O)N[C@@H](CCCNC(=N)N)C(=O)N[C@@H](C)C(=O)N[C@@H](CC(N)=O)C(N)=O)NC(=O)[C@H](C(C)C)NC(=O)[C@H](CCCNC(=N)N)NC1=O` is reported as 3.33 ± 0.05% (ICR mice, blood; intraductal mammary, 10 mg/kg, day 5).
`CSCC[C@H](N)C(=O)N[C@@H](C)C(=O)N[C@@H](Cc1c[nH]c2ccccc12)C(=O)N[C@@H](Cc1c[nH]cn1)C(=O)N[C@@H](CC(=O)O)C(=O)N[C@@H](CC(=O)O)C(=O)N[C@@H](CCC(=O)O)C(=O)N[C@@H](CCC(=O)O)C(=O)N[C@@H](Cc1ccccc1)C(=O)N[C@@H](C)C(=O)N[C@@H](CCCNC(=N)N)C(=O)N[C@@H](CCCNC(=N)N)C(=O)N[C@@H](CCCNC(=N)N)C(=O)N[C@@H](CCCNC(=N)N)C(=O)NCCCCCC(=O)NCCCCC(NC(=O)CCCCCNC(=O)[C@H](CCCNC(=N)N)NC(=O)[C@H](CCCNC(=N)N)NC(=O)[C@H](CCCNC(=N)N)NC(=O)[C@H](CCCNC(=N)N)NC(=O)[C@H](C)NC(=O)[C@H](Cc1ccccc1)NC(=O)[C@H](CCC(=O)O)NC(=O)[C@H](CCC(=O)O)NC(=O)[C@H](CC(=O)O)NC(=O)[C@H](CC(=O)O)NC(=O)[C@H](Cc1c[nH]cn1)NC(=O)[C@H](Cc1c[nH]c2ccccc12)NC(=O)[C@H](C)NC(=O)[C@@H](N)CCSC)C(=O)NCCCCC(NC(=O)C(CCCCNC(=O)CCCCCNC(=O)[C@H](CCCNC(=N)N)NC(=O)[C@H](CCCNC(=N)N)NC(=O)[C@H](CCCNC(=N)N)NC(=O)[C@H](CCCNC(=N)N)NC(=O)[C@H](C)NC(=O)[C@H](Cc1ccccc1)NC(=O)[C@H](CCC(=O)O)NC(=O)[C@H](CCC(=O)O)NC(=O)[C@H](CC(=O)O)NC(=O)[C@H](CC(=O)O)NC(=O)[C@H](Cc1c[nH]cn1)NC(=O)[C@H](Cc1c[nH]c2ccccc12)NC(=O)[C@H](C)NC(=O)[C@@H](N)CCSC)NC(=O)CCCCCNC(=O)[C@H](CCCNC(=N)N)NC(=O)[C@H](CCCNC(=N)N)NC(=O)[C@H](CCCNC(=N)N)NC(=O)[C@H](CCCNC(=N)N)NC(=O)[C@H](C)NC(=O)[C@H](Cc1ccccc1)NC(=O)[C@H](CCC(=O)O)NC(=O)[C@H](CCC(=O)O)NC(=O)[C@H](CC(=O)O)NC(=O)[C@H](CC(=O)O)NC(=O)[C@H](Cc1c[nH]cn1)NC(=O)[C@H](Cc1c[nH]c2ccccc12)NC(=O)[C@H](C)NC(=O)[C@@H](N)CCSC)C(N)=O` (stereo partly shown) has a tissue distribution of 5.67% (C57BL/6 mouse female, spine; dose not given, 6 h; reference: total).
`CC(C)=CCC/C(C)=C/CCn1cc(CC(P(=O)(O)O)P(=O)(O)O)nn1` gave a fraction unbound of 0.035 (equilibrium dialysis; mouse plasma; 1 µg/mL, 4 h).
For `CCCC[C@H]1C(=O)N(C)[C@@H](CCCC)C(=O)N[C@@H](CCCNC(=O)CN2CCN(CC(=O)O)CCN(CC(=O)O)CCN(CC(=O)O)CC2)C(=O)N[C@H](C(=O)NCC(N)=O)CSCC(=O)N[C@@H](Cc2ccc(O)cc2)C(=O)N(C)[C@@H](C)C(=O)N[C@@H](CC(N)=O)C(=O)N2CCC[C@H]2C(=O)N[C@@H](Cc2c[nH]cn2)C(=O)N[C@@H](CC(C)C)C(=O)N(C)CC(=O)N[C@@H](Cc2c[nH]c3ccccc23)C(=O)N[C@@H](CO)C(=O)N[C@@H](Cc2c[nH]c3ccccc23)C(=O)N1C` [gallium-68 labelled], the tissue uptake was 5.67 ± 2.31 %ID/g (NOD/SCID mice with CHO-hPD-L1 xenograft, stomach; 60 min post injection).
`N#[11C]c1ccc(-c2csc(NN=C3CCCC3)n2)cc1` — result for “uptake in large intestine with contents”: 1.61 ± 0.11 %ID/g (C57BL/6 mouse, male; intravenous, 3 MBq, 15 min).
For `CCCC(=O)N[C@@H](CCCNC(=N)N)C(=O)N[C@@H](Cc1c[nH]c2ccccc12)C(=O)N[C@@H](CCCCN)C(=O)N[C@H](C(=O)N[C@@H](Cc1ccccc1)C(=O)N[C@@H](CCCCN)C(=O)N[C@@H](CCCCN)C(=O)N[C@H](C(=O)N[C@@H](CCC(=O)O)C(=O)N[C@@H](CCCCN)C(=O)N[C@H](C(=O)NCC(=O)N[C@@H](CCC(N)=O)C(=O)N[C@@H](CC(N)=O)C(=O)N[C@H](C(=O)N[C@@H](CCCNC(=N)N)C(=O)N[C@@H](CC(=O)O)C(=O)NCC(=O)N[C@H](C(=O)N[C@H](C(=O)N[C@@H](CCCCN)C(=O)N[C@@H](C)C(=O)NCC(=O)N1CCC[C@H]1C(=O)N[C@@H](C)C(=O)N[C@H](C(=O)N[C@@H](C)C(=O)N[C@H](C(=O)N[C@H](C(=O)NCC(=O)N[C@@H](CCC(N)=O)C(=O)N[C@@H](C)C(=O)N[C@@H](C)C(=O)N[C@H](C(=O)N[C@H](C(N)=O)[C@@H](C)CC)[C@@H](C)O)C(C)C)C(C)C)C(C)C)C(C)C)[C@@H](C)CC)[C@@H](C)CC)C(C)C)[C@@H](C)CC)[C@@H](C)CC`, the hemolysis was under 8% (mouse erythrocytes; 32 µM, 1 h, 37 °C).
For `CN1Cc2cc(Cl)ccc2-n2c(nnc2C2CCN(c3cccc([18F])n3)CC2)C1`, the tissue uptake was 3.18 ± 0.68 %ID/g (C57BL/6 mouse male, blood; intravenous, 3.7 MBq, 15 min).
`CC(=O)CCC1C(=O)NC(C(C)C)C(=O)NC(Cc2cc(O)cc(F)c2)C(=O)N2CCCC(N2)C(=O)OC(C(C)=CC=CC(=O)N2CCCCO2)CC=CC=CC(O)C(C)C1O` (stereo not shown) gave a total bilirubin of 3.7 µM (CD-1 mice, serum; oral, 250 mg/kg repeated, day 7).

Excerpt of the above:
`CC(=O)CCC1C(=O)NC(C(C)C)C(=O)NC(Cc2cc(O)cc(F)c2)C(=O)N2CCCC(N2)C(=O)OC(C(C)=CC=CC(=O)N2CCCCO2)CC=CC=CC(O)C(C)C1O` (stereo not shown) gave a total bilirubin of 3.7 µM (CD-1 mice, serum; oral, 250 mg/kg repeated, day 7).
The RDW-SD of `C=CC(=O)Nc1cccc(Cn2ncc3cnc(Nc4cnn(CCOC)c4)nc32)c1` is reported as 33.5 ± 1.46% (Sprague-Dawley rat, male; oral, 180 mg/kg, day 28, 28-day subacute toxicity study).
